Measurements of several laboratories.
Lines come from different studies, so protocols differ. Several values in a cell are separate wells, animals, samples, runs or records. ± marks the error that the study gave. No end group written: not given here.
U2AF2: U2AF2 148-342 (Homo sapiens, UniProt P26368)
Sequence of UniProt P26368 (whole entry, looked up): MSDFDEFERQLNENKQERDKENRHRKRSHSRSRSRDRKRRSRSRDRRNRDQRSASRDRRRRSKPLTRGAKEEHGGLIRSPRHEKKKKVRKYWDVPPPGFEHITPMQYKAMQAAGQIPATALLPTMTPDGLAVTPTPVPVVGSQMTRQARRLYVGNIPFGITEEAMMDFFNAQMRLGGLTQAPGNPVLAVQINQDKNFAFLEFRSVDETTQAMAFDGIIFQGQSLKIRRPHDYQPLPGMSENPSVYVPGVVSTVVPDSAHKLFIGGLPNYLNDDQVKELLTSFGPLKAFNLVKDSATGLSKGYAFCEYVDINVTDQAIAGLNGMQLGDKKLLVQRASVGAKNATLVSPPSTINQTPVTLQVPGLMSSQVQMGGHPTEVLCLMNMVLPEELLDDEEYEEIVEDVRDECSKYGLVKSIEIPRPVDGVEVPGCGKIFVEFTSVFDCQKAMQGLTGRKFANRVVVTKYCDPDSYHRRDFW
B1: human LAMP1; sequence looked up; chain AMFMVKNGNGTACIMANFSAAFSVNYDTKSGPKNMTFDLPSDATVVLNRSSCGKENTSDPSLVIAFGRGHTLTLNFTRNATRYSVQLMSFVYNLSDTHLFPNASSKEIKTVESITDIRADIDKKYRCVSGTQVHMNNVTVTLHDATIQAYLSNSSFSRGETRCEQDRPSPTTAPPAPPSPSPSPVPKSPSVDKYNVSGTNGTCLLASMGLQLNLTYERKDNTTVTRLLNINPNKTSASGSCGAHLVTLELHSEGTTVLLFQFGMNASSSRFFLQGIQLNTILPDARDPAFKAANGSLRALQATVGNSYKCNAEEHVRVTKAFSVNIFKVWVQAFKVEGGQFGSVEECLLDENSMLIPIAVGGALAGLVLIVLIAYLVGRKRSHAGYQTI
B2: bicyclic; chain AATCHCRRSCYSTEYSYGTCTVMGINHRFCCL (also: bicyclic or more (positions not given here))

coproporphyrin I
concentration ratio (human, serum; oral, 20 mg ezetimibe, 1.33 h, geometric mean ezetimibe alone; relative to: at 1.33 h over pre-dose): 6.78

Cy5.5
t1/2 beta (IVIS fluorescence, two-compartment model; BALB/c mouse, tumour-free, blood): 9.72 h

Polymyxin B
brain concentration (LC-MS; Sprague-Dawley rat, right hippocampus homogenate; intracerebroventricular, 0.75 mg/kg, 1 h): 3230 ng/mL and 3470 ng/mL and 290 ng/mL and 4170 ng/mL and 1750 ng/mL and 2550 ng/mL and 4440 ng/mL and 370 ng/mL

human RNA helicase A
log2 fold change (CYB5R4 knockout human cells; PP4 interaction, 3xFLAG-PP4C IP-MS; concentration not given; relative to: CYB5R4 KO over parental): -0.71

GAUUUUUUU (ssRNA)
Kd (U2AF2; sequencing of bound RNA; RNA; motif only): 580 nM

B1 (human LAMP1)
log2 fold change (PP6C (human); co-immunoprecipitation, IP-MS; CYB5R4 knockout cells; concentration not given; relative to: CYB5R4 knockout over parental): -0.97

protopine
amount in maternal perfusate (placenta perfusion; 360 min; relative to: initial amount): 23.1 ± 4.8%

C-peptide
bias (LC-MS/MS; pooled human serum, high level; 24 h, 4 °C, stability before sample preparation; relative to: untreated control): -0.6%

Teicoplanin
recovery (QC solution; 7 days, 2–6 °C, low QC level): 98.7%

CTOP
retention time (RP-HPLC; HALO Phenyl-hexyl column; 25 µM, acetic acid/methanol, 10 min gradient): 8.37 min

B2
molecular mass (sedimentation velocity ultracentrifugation; 10 mM sodium phosphate; 40 µM, pH 7.4, 20 °C): 5.06 kDa

CAUUUUCAU (ssRNA)
Kd (U2AF2; sequencing of bound RNA; RNA; motif only): 980 nM

coproporphyrin III
Tmax (human, serum; 20 mg ezetimibe, ezetimibe alone): ≤ 2 h

caspofungin
alkaline phosphatase (adult ICU patients, mITT, serum; dose not given, day 4): 153 U/L

regorafenib N-β-glucuronide
Tmax (wild-type mouse, plasma; oral, 10 mg/kg of regorafenib, single dose): 1.6 ± 0.89 h

coproporphyrin I
diurnal variation (Cmean-Cmin)/Cmean (human, plasma; control period): 18.6 ± 2.2%

[177Lu]Lu-DOTA-TATE
remaining compound (PBS; up to 24 h, 37 °C): > 95%

equol sulfate
plasma concentration (human, plasma; dose not given, mean): 859 nM

FNA / CGLSGLGVA-NH2 ([18F]FNA-labelled, C-amide)
tissue uptake (ex vivo gamma counting; peptide, glioblastoma mouse model, heart; 60 min post injection, with: 500-fold excess CooP blocking): 0.32 %ID/g
